Results from different studies.
Compare with care: the assays were run in different laboratories. ± marks the error that the study gave.

CC1(C)C(=O)N(c2cnc(C#N)c(C(F)(F)F)c2)C(=S)N1Cc1ccc(-c2c[nH]nn2)cc1 — solubility (water; 10% DMSO): 3000 µg/mL
Cc1[nH]nc2c1N=C(c1ccccc1Cl)c1cnc(N3CCOCC3)cc1N2 — solubility (aqueous buffer; pH 6.8): 0.44 µg/mL
CC(C)N(Cc1ccccc1)C(=O)C1(C(F)(F)F)CC1 — solubility (PBS; 2 h, pH 7.4, 25 °C, 2% DMSO): 291 µM
O=c1c2ccccc2[se]n1CCCCCCn1[se]c2ccccc2c1=O — solubility (shake-flask, RP-HPLC; PEG 200; 24 h, 25 °C): 2950 ± 70 µg/mL
CC(C)N(Cc1ccccc1)C(=O)C1(C(F)(F)F)CCC1 — solubility (PBS; pH 7.4, 25 °C, 2% DMSO): 235 µM
C/C(N)=N/C(=N\S(=O)(=O)c1ccc(C(F)(F)F)cc1)N1C[C@H](c2ccccc2)C(c2ccc(Cl)cc2)=N1 — solubility (simulated gastric fluid; pH 6.8): 0.8 µg/mL
O=C1Nc2ccc(I)cc2C1=Cc1cc(Br)c(O)c(Br)c1 — solubility (AlphaScreen buffer; aqueous buffer, 7.5% DMSO; pH 7.3): 140 ± 6.3 µM
CC1CCC2C(C)C(OC(=O)CCC(=O)OCCOCCOC(=O)N3CCC(Nc4ccc(S(=O)(=O)NC(=O)c5ccc(N6CCN(CC7=C(c8ccc(Cl)cc8)CC(C)(C)CC7)CC6)cc5Oc5cnc6[nH]ccc6c5)cc4[N+](=O)[O-])CC3)OC3OC4(C)CCC1C32OO4 (stereo not drawn) — solubility: 2.76 µg/mL
O=C(N[c-]1cccc1)OCc1ccc(F)cc1.[Fe+2].c1cc[cH-]c1 — solubility (absorbance; PBS; pH 7.4, 1% DMSO): 49 ± 4 µM
COC(=O)c1ccc2c(c1)NC(=O)C2=Cc1cc(Br)c(O)c(Br)c1 — solubility (AlphaScreen buffer; aqueous buffer, 7.5% DMSO; pH 7.3): 135 ± 28 µM
O=C(Nc1ccc2ccccc2c1)C1CC2(CC2)CO1 (stereo not drawn) — solubility (kinetic solubility; PBS with 2% DMSO; 2 h, pH 7.4, 25 °C, mean of incubations): 360 µM
OC[C@H]1O[C@@H](n2cnc3c(SCc4ccccc4)nc(Cl)nc32)C[C@@H]1O — solubility (UV absorbance; culture medium; stock diluted to 0.20 mM): 20.8 µM
O=S1(=O)CC2CCCCC2CS1 (stereo not drawn) — solubility (phase solubility, NMR; water; 25 °C, together with: hydroxypropyl-β-cyclodextrin 64.7 mM): 9400 µM
C[C@]12COc3ccc(Oc4ccccc4)cc3[C@H]1CCN2 — solubility (PBS; 2 h, pH 7.4): 258 µM
CN(C)S(=O)(=O)c1ccc(S(=O)(=O)N2CCC(n3c(=O)[nH]c4ccccc43)CC2)cc1 — solubility (HPLC; NMP; 24 h, 20 °C): ≥ 10000 µg/mL
COc1cc(OC)c(/N=N/c2ccc(C(=O)NO)cc2)c(OC)c1 — solubility (water with 2% DMSO): > 200 µM
O=C(Nc1ccc2ccccc2c1)C1CC2(CCC2)CO1 (stereo not drawn) — solubility (kinetic solubility; PBS with 2% DMSO; 2 h, pH 7.4, 25 °C, mean of incubations): 118 µM
Cc1cc(NC(=O)c2ccc(Br)cc2)n[nH]1 — solubility (aqueous buffer; pH 7.4): 15.9 µg/mL
CC1(C)C(=CC=C2CCCC(C=CC3=[N+](CCC[N+](C)(C)C)c4ccc(S(=O)(=O)O)cc4C3(C)C)=C2SCCOCCOCCC(=O)O)N(CCC[N+](C)(C)C)c2ccc(S(=O)(=O)O)cc21 — solubility (DMSO): 140000 µg/mL
OCC1OC(n2cnc3c(NCc4ccc(Br)s4)ncnc32)C(O)C1O (stereo not drawn) — solubility (acetate buffer; pH 4.5): 260 µg/mL
O=C(Nc1ccc2ccccc2c1)C1CC2(CCC2)C1 — solubility (kinetic solubility; PBS with 2% DMSO; 2 h, pH 7.4, 25 °C, single incubation): 7 µM
O=C(NNCc1ccccc1)C1(C(F)(F)F)CC1 — solubility (PBS; 2 h, pH 7.4, 25 °C, 2% DMSO): 454 µM
CC1(C)OB(c2ccc(COC(=O)N(Cc3cn(-c4cc5ccc(O)cc5oc4=O)nn3)[c-]3cccc3)cc2)OC1(C)C.[Fe+2].c1cc[cH-]c1 — solubility (absorbance; PBS; pH 7.4, 1% DMSO): 126 ± 6 µM
O=C1Nc2ccc(I)cc2C1=Cc1cc(Br)cc(Br)c1 — solubility (AlphaScreen buffer; aqueous buffer, 7.5% DMSO; pH 7.3): 10.7 ± 2 µM
CSCc1cn(-c2cccc(C(=O)N3CCC(c4nc(-c5ccccc5)n[nH]4)CC3)c2)nn1 — solubility (UV; DPBS; 18 h, room temperature): 75.4 ± 4.7 µM
C#CCN(C(=O)OCc1ccc(F)cc1)[c-]1cccc1.[Fe+2].c1cc[cH-]c1 — solubility (absorbance; RPMI medium with 5% FBS; 1% DMSO): 125 ± 14 µM
O=C(NCc1ccc2c(c1)CN(C(=O)c1cc(-c3ccccc3)no1)C2)C1C=CC=CC=C1 — solubility (UV; DPBS; 18 h, room temperature): 1.02 ± 0.3 µM
CCc1cc(C)cc(CC)c1-c1c(OC(=O)C2(C(F)(F)F)CCC2)n2n(c1=O)CCOCC2 — solubility (PBS; 2 h, pH 7.4, 25 °C): 282 µM
O=C1Nc2ccc(I)cc2C1=Cc1ccc(-c2ccc(C(F)(F)F)cc2)cc1 — solubility (AlphaScreen buffer; aqueous buffer, 7.5% DMSO; pH 7.3): 1.7 ± 0.1 µM
C#CCOc1ccc(/C=C2\SC(=O)N(CC(=O)NCc3ccccc3)C2=O)cc1 — solubility (shake-flask HPLC; PEG 400; 40 h, 25 °C): 30000 µg/mL
FC(F)(F)C1(c2ccc(CN3CCN(C(c4ccccc4)c4ccc(Cl)cc4)CC3)cc2)CC1 (stereo not drawn) — solubility (PBS; pH 7.4, 25 °C, 2% DMSO): 4 µM
Cc1cc(C(=O)N[C@@H](CC(=O)NC(C)(C)C)C(=O)NCCNC(=O)c2cccc(-c3cc[nH]n3)c2)no1 — solubility (simulated gastric fluid; pH 1.2): > 94 µg/mL
O=C(Nc1cccc(C(=O)N2CCC(c3nc(-c4ccccc4)n[nH]3)CC2)c1)c1ccccc1 — solubility (UV; DPBS; 18 h, room temperature): 31.1 ± 0.9 µM
CN(Cc1ccc(C2(C(F)(F)F)CCC2)cc1)Cc1cccc2ccccc12 — solubility (PBS; pH 7.4, 25 °C, 2% DMSO): 8 µM
O=c1[nH]c2cccnc2n1-c1ccc2c(c1)OC1(CCCCC1)O2 — solubility (simulated gastric fluid; pH 2): 3 µM
FC(F)(F)C1(c2ccc(CN3CCN(C(c4ccccc4)c4ccc(Cl)cc4)CC3)cc2)CCC1 (stereo not drawn) — solubility (PBS; 2 h, pH 7.4, 25 °C): 7 µM
O=C(N[c-]1cccc1)OCc1ccc(C(=O)O)cc1.[Fe+2].c1cc[cH-]c1 — solubility (absorbance; RPMI medium with 5% FBS; 1% DMSO): > 200 µM
O=C(Nc1ccc2ccccc2c1)C1CC2(C1)CC(F)(F)C2 — solubility (kinetic solubility; PBS with 2% DMSO; 2 h, pH 7.4, 25 °C, mean of incubations): 9 µM
O=C1Nc2ccc(I)cc2C1=Cc1ccc(C(=O)O)cc1 — solubility (AlphaScreen buffer; aqueous buffer, 7.5% DMSO; pH 7.3): 356 ± 18 µM
O=C(NC1(C(F)(F)F)CCC1)c1ccccc1 — solubility (PBS; pH 7.4, 25 °C, 2% DMSO): 342 µM
O=C1Nc2ccc(Br)cc2C1=Cc1cc(Br)c(O)c(Br)c1 — solubility (AlphaScreen buffer; aqueous buffer, 7.5% DMSO; pH 7.3): 107 ± 10 µM
CN(C)C(=O)c1ccc(COC(=O)N[c-]2cccc2)cc1.[Fe+2].c1cc[cH-]c1 — solubility (absorbance; PBS; pH 7.4, 1% DMSO): > 200 µM

Excerpt of the above:
O=C(Nc1ccc2ccccc2c1)C1CC2(CCC2)C1 — solubility (kinetic solubility; PBS with 2% DMSO; 2 h, pH 7.4, 25 °C, single incubation): 7 µM
O=C(N[c-]1cccc1)OCc1ccc(C(=O)O)cc1.[Fe+2].c1cc[cH-]c1 — solubility (absorbance; RPMI medium with 5% FBS; 1% DMSO): > 200 µM
O=C(NC1(C(F)(F)F)CCC1)c1ccccc1 — solubility (PBS; pH 7.4, 25 °C, 2% DMSO): 342 µM
CN(Cc1ccc(C2(C(F)(F)F)CCC2)cc1)Cc1cccc2ccccc12 — solubility (PBS; pH 7.4, 25 °C, 2% DMSO): 8 µM
